Measured values from different studies.
Lines come from different studies, so protocols differ. Several values in a cell are separate wells, animals, samples, runs or records. ± gives the spread as reported.

| Structure (SMILES) | cell line | assay | system | conditions | how to read | measurement | result |
| --- | --- | --- | --- | --- | --- | --- | --- |
| O=C(NCc1cc(F)cc(F)c1)[C@@]1(O)CCN(c2ccc3[nH]ccc3c2)C1=O | OVXF1023 ovarian cancer cells | colony formation, soft agar clonogenic |  | concentration not given |  | efficacy | 62% |
| CC(C)Cc1ccc(C(C)C(=O)[Se]CC(=O)Nc2cccc(C(F)(F)F)c2)cc1 (stereo not drawn) | NCI60 colon subpanel | NCI60 five-dose screen |  |  |  | mean TGI | 11.6 µM |
| C#CCCCC(O)/C=C/C(=O)NC1(c2ccc(-c3nc4ccn5c(=O)[nH]nc5c4cc3-c3ccccc3)cc2)CCC1 (stereo not drawn) | MDA-MB-468 | flow cytometry, PI staining |  | EC60 concentration, 72 h, DMSO 22.2 |  | cells in S phase | 27.4% |
| C=CC(=O)N1CCCC(n2c(=O)c3ncccc3n(Cc3ccc(Oc4ccccc4)cc3)c2=O)C1 (stereo not drawn) | HH | cell growth or viability, MTT |  | 72 h |  | IC50 | 15 µM |
| O=C(O)C1OC(Oc2ccc3c(=O)c(O)c(-c4ccc(O)cc4)oc3c2)C(O)C(O)C1O (stereo not drawn) | MDCKII-UGT1A1/MRP2 cells | glucuronide efflux, substrate |  |  |  | Jmax | 6.86 ± 2.72 pmol/mg/min |
| Cn1ncc(-c2ccc3c(=O)[nH]nc(CN)c3c2)c1-c1c(F)c(Cl)cc(OC2CC2)c1C#N | HOS | cell viability, inhibitor, CellTiter-Glo |  | 120 h, baseline-subtracted |  | IC50 | 0.2 µM |
| CC(C)n1nc(C(F)F)cc1C(=O)Nc1ccc([C@H]2[C@@H](O)CCCc3cncn32)c(-c2ccccc2)c1 | BRD4-HiBiT cells | BRD4 degradation rescue, inhibitor |  | 4 h, 50% degradation rescued, with: dBET6 500 nM |  | EC50 | 0.173 µM |
| COC(=O)c1cc(NC2=NC(=O)C(=Cc3ccc(N(C)C)cc3)S2)ccc1OC(C)=O | MCF7 | GC-MS, refers to: D-Mannose |  | 1 µM | reference: DMSO | metabolite level | -0.58 fold change |
| CSC(=S)N/N=C(\C)c1ccc(Nc2nnc(-c3ccc(Cl)cc3)c3ccccc23)cc1 | HepG2 | cell growth or viability, MTT |  | 0.156 µM |  | cell death | 48.7% |
| CC(=O)Oc1ccccc1C(=O)[Se]CC(=O)Nc1cccc(C(F)(F)F)c1 | NCI60 colon subpanel | NCI60 five-dose screen |  |  |  | mean TGI | 12.2 µM |
| Cc1ncsc1-c1ccc(C(C)NC(=O)C2CC(O)CN2C(=O)C(NC(=O)CCCCCCCCCCN2CCCC(Nc3ncc(Cl)c(Nc4ccccc4S(=O)(=O)C(C)C)n3)C2)C(C)(C)C)cc1 (stereo not drawn) | 22Rv1 | RNA-seq, refers to: MNX1-AS1 |  | concentration not given | reference: DMSO | log2 fold change | -1.42 |
| CCN(C(=O)c1cc(F)ccc1Oc1nncnc1N1CCC2(C1)CN([C@H](CCCN(C)CCOC)C(C)C)C2)C(C)C | SAOS-2 | cell growth or viability |  | 7 days |  | GI50 | > 10 µM |
| Cc1ccc(-n2cc(CSc3nc4ccccc4n3Cc3cn(-c4ccc(C)cc4)nn3)nn2)cc1 | Caco-2 | MTT |  | 62.5 ppm |  | cytotoxicity | 83.9% |
| N#Cc1cccc(/C=C/C(=O)c2ccc(O)cc2)c1 | U-87 MG | refers to: SLC7A11 |  | concentration not given | reference: untreated | fold change | 40.2 |
| O=C(C[Se]C(=O)c1cc2ccccc2o1)Nc1cccc(C(F)(F)F)c1 | NCI60 colon subpanel | NCI60 five-dose screen |  |  |  | mean TGI | 7.28 µM |
| CCn1ccc(C2CCCN2S(=O)(=O)c2cc(C)c(C)cc2C)n1 (stereo not drawn) | human monocytes | phagocytosis of anti-D opsonised RBCs, monocyte monolayer |  | concentration not given |  | inhibition of phagocytosis | inactive |
| Cn1c(=O)n(C2CCC(=O)NC2=O)c2ccc(C3CCN(CC(=O)Nc4cccc(CS(=O)(=O)N5CC[C@H](Nc6cccc(-c7sc(C(=O)O)c(OCC(=O)O)c7Cl)c6)CC5(C)C)c4)CC3)cc21 (stereo partly drawn) | B16-F10 | HTRF, refers to: phospho-STAT1 Tyr701 |  | 1.1 µM, with: IFN-γ | reference: min-max normalised | pSTAT1 level | 100% and 87.4% and 91.4% and 88.1% and 87.1% and 90.5% |
| COc1cccc(OC)c1-c1cc(C(=O)NC2(C(=O)O)C3CC4CC(C3)CC2C4)nn1-c1ccc(C(=O)N(C)CCCN(C)C(=O)[C@H](CCCCNC(=O)[C@H](CC(C)C)NC(=O)C2OC2C(=O)O)NC(=O)CN2CCN(CC(=O)[O-])CCN(CC(=O)[O-])CCN(CC(=O)[O-])CC2)cc1C(C)C.[177Lu+3] (mixture of isomers) | HT-29 |  |  | concentration not given, 240 min | reference: added activity | surface-bound fraction | 4.33 ± 0.48% |
| O=C(Nc1nnc2c1c(-c1ccc(Cl)cc1)nc1sc(=Cc3ccco3)c(=O)n12)c1ccccc1 (mixture of isomers) | LOX IMVI | NCI60 SRB |  | 10 µM |  | growth percent | 42.5% |
| CO[C@@H]1[C@@H](OC(N)=O)[C@@H](O)[C@H](Oc2ccc3c(O)c(NC(=O)c4ccc(O)c(CC=C(C)C)c4)c(=O)oc3c2C)OC1(C)C | DLD-1 parental |  |  | 250 µM | reference: untreated | colony survival | 0.12% |

| Structure (SMILES) | cell line | assay | system | conditions | how to read | measurement | result |
| --- | --- | --- | --- | --- | --- | --- | --- |
| COc1cc([C@@H]2O[C@@H](c3cc(OC)c(O[C@@H]4O[C@H](CO)[C@@H](O)[C@H](O)[C@H]4O)c(OC)c3)[C@H](CO)[C@H]2CO)cc(OC)c1O | 3T3-L1 pre-adipocytes |  |  | 5 to 20 µM, 48 h |  | intracellular triglyceride level | decreased |
| CCn1nc(Cl)c2c1-c1cnc(N)c(c1)O[C@H](C)c1cc(F)ccc1-c1nn(C)cc1C2 | Ba/F3 EML4-ALK v1 | cell viability |  |  |  | Emax | 99.3% |
| CN1CCCNC(=O)c2cccc(c2)C(=O)NCCCN(C)CCCNc2cccc3c2C(=O)c2cccc(c2C3=O)NCCC1 | SAS | RNA-seq, refers to: MT-ND3 mRNA |  | 1 µM, 6 h | reference: untreated cells | log2 fold change | -2.18 |
| CN(C)c1ccc(-n2cc(COC(=O)[C@@]3(C)C=C(C(=O)OC(C)(C)C)C(=O)CC3)nn2)cc1 | HeLa | quantitative western blot |  | concentration not given, 10 (unit not given), with: EGF |  | pRSK/tubulin ratio | 0.263 |
| Cc1c(Cl)cccc1Nc1ccccc1C(=O)[Se]CC(=O)Nc1cccc(C(F)(F)F)c1 | NCI60 colon subpanel | NCI60 five-dose screen |  |  |  | GI50 | 2.58 µM |
| CNS(=O)(=O)Nc1nccc(Cc2c(C)c3ccc(Oc4ncccc4F)cc3oc2=O)c1F | Caov-3 | cell viability |  | 7 days |  | IC50 | > 1 µM |
| CCOc1cncc(-c2ccc(NC(=O)C3(c4ccnc(NS(=O)(=O)C5CC5)n4)CCOCC3)nc2)n1 | Raji | cell growth or viability, ATP luminescence |  | 72 h |  | IC50 | 0.085 µM |
| COc1ccccc1-c1ccncc1C(=O)Nc1nnc(OCc2ccc(Cl)cc2)s1 | DLD-1 parental |  |  | 4 µM, mean of replicates |  | colony count | 79.5 and 81.5 and 69.5 |
| CCN(CC)CC(=O)Nc1cccc(-n2cc(-c3ccc4ccc(-c5cn(-c6cccc(NC(=O)CN(CC)CC)c6)nn5)cc4c3)nn2)c1 | RCC4 | PCR angiogenesis array, refers to: CDH5 |  | 5 x IC50, 6 h, normoxia | reference: untreated | fold regulation | 1.62 |
| COc1cc(N2CCN(C(=O)C3CCCN3)CC2)ccc1Nc1ncc(Cl)c(Nc2ccccc2P(C)(C)=O)n1 (stereo not drawn) | Ba/F3 EML4-ALK | flow cytometry |  | concentration not given, 1 h |  | late apoptotic cells | 3.24% and 2.77% and 3.28% |
| Cn1ncc2cc(-c3cncc(Cl)c3N3CCC4(CCNC4=O)CC3)ccc21 | LS174T | gene expression, microarray, refers to: MFN2 mRNA |  | concentration not given, 4 h | reference: untreated cells | log2 fold change | -1.63 |
| C=CC(=O)N1[C@H](c2ccc3c(c2)OCO3)c2[nH]c3ccccc3c2C[C@@H]1C(=O)NC | rat DRG neurons |  |  | 3.333 µM, 48 h, with: vincristine 40 nM |  | mean neuron degeneration | 18.2% |
| COC(=O)c1cc(NC2=NC(=O)C(=Cc3ccc(C)cc3)S2)ccc1OC(C)=O | MCF7 | GC-MS, refers to: L-Methionine |  | 1 µM | reference: DMSO | metabolite level | -0.52 fold change |
| CN(C)CCN1CCN(c2ccc3nc(-c4ccc5nc(-c6ccc(C(F)(F)F)cc6)[nH]c5c4)[nH]c3c2)CC1 | UO-31 | SRB |  | 10 µM, 48 h |  | growth percent | 131% |
| CC(C)c1ccc(N(C)c2ccc3c(c2)OCC[C@H]3CNc2cnccc2C(=O)O)cc1 | HCC1143 | cell growth or viability, ATP luminescence |  | 7 days |  | IC50 | ≥ 10 µM |
| O=S1(=O)CC2CCCCC2CS1 (stereo not drawn) | MDA-MB-468 | MTT |  | 6.25 µM, 72 h |  | viability | 5.34% |
| O=C1Nc2ccccc2C1(c1c[nH]c2ccccc12)c1c[nH]c2ccccc12 | human monocytes |  |  | 5 µM | reference: DMSO | IL-1β induction | increased |
| CC(C)(C)n1cc(CN(Cc2cn(CC(=O)O)nn2)Cc2cn(C(C)(C)C)nn2)nn1 | OVCAR-5, HPG-labelled | live-cell CuAAC reaction, LC-ESI-MS/MS | cytosolic proteins | concentration not given, with: BSO 20 µM, 24 h pretreatment |  | amount of CuAAC product | 0.45 pg/µg protein and 0.47 pg/µg protein and 0.55 pg/µg protein |
| CC[C@H](C)C(=O)O[C@H]1C[C@@H](C)C=C2C=C[C@H](C)[C@H](CC[C@@H]3CC=CC(=O)O3)[C@H]21 | T84 | short-circuit current |  | 50 µM, with: forskolin 20 µM |  | maximal inhibition | > 80% |

A few entries again:
| Structure (SMILES) | cell line | assay | system | conditions | how to read | measurement | result |
| --- | --- | --- | --- | --- | --- | --- | --- |
| CCn1ccc(C2CCCN2S(=O)(=O)c2cc(C)c(C)cc2C)n1 (stereo not drawn) | human monocytes | phagocytosis of anti-D opsonised RBCs, monocyte monolayer |  | concentration not given |  | inhibition of phagocytosis | inactive |
| Cn1c(=O)n(C2CCC(=O)NC2=O)c2ccc(C3CCN(CC(=O)Nc4cccc(CS(=O)(=O)N5CC[C@H](Nc6cccc(-c7sc(C(=O)O)c(OCC(=O)O)c7Cl)c6)CC5(C)C)c4)CC3)cc21 (stereo partly drawn) | B16-F10 | HTRF, refers to: phospho-STAT1 Tyr701 |  | 1.1 µM, with: IFN-γ | reference: min-max normalised | pSTAT1 level | 100% and 87.4% and 91.4% and 88.1% and 87.1% and 90.5% |
| COc1cccc(OC)c1-c1cc(C(=O)NC2(C(=O)O)C3CC4CC(C3)CC2C4)nn1-c1ccc(C(=O)N(C)CCCN(C)C(=O)[C@H](CCCCNC(=O)[C@H](CC(C)C)NC(=O)C2OC2C(=O)O)NC(=O)CN2CCN(CC(=O)[O-])CCN(CC(=O)[O-])CCN(CC(=O)[O-])CC2)cc1C(C)C.[177Lu+3] (mixture of isomers) | HT-29 |  |  | concentration not given, 240 min | reference: added activity | surface-bound fraction | 4.33 ± 0.48% |
| O=C(Nc1nnc2c1c(-c1ccc(Cl)cc1)nc1sc(=Cc3ccco3)c(=O)n12)c1ccccc1 (mixture of isomers) | LOX IMVI | NCI60 SRB |  | 10 µM |  | growth percent | 42.5% |
| CO[C@@H]1[C@@H](OC(N)=O)[C@@H](O)[C@H](Oc2ccc3c(O)c(NC(=O)c4ccc(O)c(CC=C(C)C)c4)c(=O)oc3c2C)OC1(C)C | DLD-1 parental |  |  | 250 µM | reference: untreated | colony survival | 0.12% |
| COc1cc([C@@H]2O[C@@H](c3cc(OC)c(O[C@@H]4O[C@H](CO)[C@@H](O)[C@H](O)[C@H]4O)c(OC)c3)[C@H](CO)[C@H]2CO)cc(OC)c1O | 3T3-L1 pre-adipocytes |  |  | 5 to 20 µM, 48 h |  | intracellular triglyceride level | decreased |
